# Published values collected from several papers.
# A part holds a random share of what one study measured. Changes are numbered by the printed parent chain.

# Set 1 — method: RNA Bind-n-Seq; form: RNA; matrix: in vitro; tested at: 365 nM; baseline: no-protein control; reading: higher = stronger binding
# Target: RNA binding protein fox-1 homolog 2, RRM domain, GST-SBP tag (RBFOX2, Homo sapiens, UniProt O43251-10, residues 100-194)
# Setting: natural RNA segment, single round, ends assumed
# Residues (chain): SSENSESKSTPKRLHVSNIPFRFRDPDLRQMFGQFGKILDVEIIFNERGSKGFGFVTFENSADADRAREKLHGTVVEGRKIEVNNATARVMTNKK
Sequence,RBNS enrichment (R)
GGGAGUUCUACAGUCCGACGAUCAGCUUCAAUAAUAUAGAGAUCUAACAUAGUCAGUCCUCAGGCCCCCUAAAGAAACAAGCAAGAAAGUGAGGGCCAUCACUAGGGUUGGCUUUGGGGAGGGGAAAACUAAGUGGAAUUCUCGGGUGCCAA,1.28
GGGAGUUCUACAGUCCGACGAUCUCUUGGCUUCCUGAUGGGAUCUCUUCUAGUGCAGUCCAGAUAGGGCUUGCAAUAUGAACCUUGGAAACUCAUAUAGCUGGGUGUUUGUUGAAGACUCUGCAUCUCACUGAUGGAAUUCUCGGGUGCCAA,0.623
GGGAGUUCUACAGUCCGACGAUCUUUUUUGGGUAUGUCUGGAUCAUUCAGACAGUACAUUUGAAUUCCGCUGAAUGUAGAUAAAUAAAAGAAAAACAAAAGAAUGCCUGUCUCAGGCCUGGGUGUCUGACCCCUGGAAUUCUCGGGUGCCAA,0.729
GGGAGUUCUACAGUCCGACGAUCAUUUCAUGACAGUUUCCUCUUUAGGGACAGCUGAGUUGCCAGUUGUGGGAGAGAACCCGGGGCCUGCUUUUCAAGGAUGAGGAGGAGGCAGGAACAGAAGGCAGCUGCUGUGGAAUUCUCGGGUGCCAA,0.556
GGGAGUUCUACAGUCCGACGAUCGCGGAUCAUGAGGUCAGGAGAUCAAGACCACCCUGGCUAACACGGUGAAACCCCAUCUCUACUAAAAAUAAAAAAAAAAAUUAGCCGGGUUUGGUGGCGUAUGCCUGUAAUGGAAUUCUCGGGUGCCAA,0.475
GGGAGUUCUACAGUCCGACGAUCUAAUGUUAAGUGGGGUACAGAUCAGCUGCCCCCCCACGUAGCCUGGACAUCGUCUUAUCCCCAUAAUCCUUGCCAUCCCUACAAGGCCCAUCGCCACCACCUUUUCCCAGUGGAAUUCUCGGGUGCCAA,0.314
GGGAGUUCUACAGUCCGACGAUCGCUCUGGGUUUUCUUUAUCCUGCCUCCCGAGACUUCUGACCCCCCUUUCCCAGCUUCAGAUCUUGGGGAGAUCCAUCCAAGGGGUUCAGCCCUCUCCUGCCUCCAUGCCUUGGAAUUCUCGGGUGCCAA,0.404
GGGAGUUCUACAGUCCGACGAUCUAAGCAUGCAUACUUUAACUUCUAUAGUUUUCUCCUUUAGAGGGUCGUCUUCAGUUUUAGAGGUUUACUUCUCCCUUGCCUUUGACUCAUUGGACUAGUGCAGAGGCUUUUGGAAUUCUCGGGUGCCAA,5.47
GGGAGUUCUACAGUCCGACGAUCGAUUCAGCACUUUGCUCUUUUAAUAACAAAUCGUCCAAAGAUCUCAAAGUAAGGGUUUUUUUUUUUAGCUUCCACUCUUCCGCAGACUUGGUCAUCGACCUAUUUUUGUUUGGAAUUCUCGGGUGCCAA,0.618
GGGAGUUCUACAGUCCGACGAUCAGAAAACAGAAAGAAGCUACAACAUGGCUCUAGUGUUGCAAUGUUUUCUAUAAGCACACUGACCUUAUGGGGCCAUGUUAUUUUUAUAUGAUAAACGUCUUCCAUAGAACUGGAAUUCUCGGGUGCCAA,0.367
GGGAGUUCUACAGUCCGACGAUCAUUGAGCCCUCUGUCUUGCUCUCUCUGCCUUCCCUGUGUCUUUCUUCUCUUACCAGAGCAUCUGUUUGCAGAGGUAACAUUACCUUCCCCAGCCACAGGUAUGUGGAAUAUGGAAUUCUCGGGUGCCAA,1.04
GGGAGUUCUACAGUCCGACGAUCUGCCGGAGCUGCCCUUCACCUUUGGGGCCCGAGACAGUCAUAAGGGAUGGACUUAGUUUUCUUGCAGGGAAAAAGGUGGACAGCCGUGUUUCUUAAGGAUGCUGAGGGCAUGGAAUUCUCGGGUGCCAA,0.338

# Set 2 — method: protein-binding microarray; form: double-stranded DNA, one strand shown; matrix: in vitro; tested at: 2200 nM top; setting: 60-bp whole probe; added: salmon DNA 0.4 mg/ml; baseline: random background probes; reading: higher = stronger binding; all sequences stand within: GCCTAGCAC … GTCTTGATTCGCTTGACGCTGCTG
# Target: Interferon regulatory factor 7, full length, phosphomimetic (IRF7, Homo sapiens, UniProt Q92985, residues 1-503, S471D/S472D/S475D/S476D/S477D/S483D/S484D/S487D)
# Chain of UniProt Q92985 (whole entry, unmodified, looked up): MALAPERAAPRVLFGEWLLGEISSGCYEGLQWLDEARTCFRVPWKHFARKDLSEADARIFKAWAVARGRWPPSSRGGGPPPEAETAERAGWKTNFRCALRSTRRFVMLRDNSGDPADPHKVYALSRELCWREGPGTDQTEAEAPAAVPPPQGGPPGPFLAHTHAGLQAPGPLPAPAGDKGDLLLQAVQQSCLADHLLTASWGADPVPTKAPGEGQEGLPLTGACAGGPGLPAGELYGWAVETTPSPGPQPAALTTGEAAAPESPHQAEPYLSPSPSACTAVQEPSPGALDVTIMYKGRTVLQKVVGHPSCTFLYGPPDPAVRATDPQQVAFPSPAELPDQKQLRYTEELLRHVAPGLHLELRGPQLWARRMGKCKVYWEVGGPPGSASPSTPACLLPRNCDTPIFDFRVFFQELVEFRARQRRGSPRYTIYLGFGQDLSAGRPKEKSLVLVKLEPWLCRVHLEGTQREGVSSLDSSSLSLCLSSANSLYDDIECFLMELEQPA
Sequence,fitted relative affinity [z-score]
TTAGGTATCGGGTATCGGTTCGTGCTA,1.16
GCCCTTATCCAATCAGAATTGTGCTAG,1.11
GACGGGTTCGGTTCCGGGACGTGCTAG,1.42
TTAGATTTCAGTTCCGATGAGTGCTAG,1.41
GACGGACTCGACACTGGGGACGTGCTA,-0.592
GCCGGTATCGGGTTTCGGGACGTGCTA,1.62
TTAGATATCGGGTTTCGATAAGTGCTA,1.03
TCATTTTGTGTTTTCATACTGTGCTAG,3.84
TTAGGTTTCGCCTTTCGGTTAGTGCTA,7.72
TTAGAACTGAGCTTCGATTAGTGCTAG,-0.514
GTAGGACTGCTTCTCCTTTAGTGCTAG,0.822
TTAGGTATCGGATATCGGTTAGTGCTA,0.274
TTAGGTTTCGGACAGGGTTAGTGCTAG,1.73
GACGATCTCAGTTTCGAAACGTGCTAG,3.53
AGGCCCTTTGCTTTCCTGATGTGCTAG,1.34
TCACTCTTCTTTTTTTTACTGTGCTAG,1.71
GACGGTTTCGACTTTCGGGATGTGCTA,9.28
GACGGTAACGGTTTCGGGACGTGCTAG,2.28
TTAGGTATCAGTATCGATTAGTGCTAG,0.273
TTAGCACTGGACTATCGGTTAGTGCTA,-0.256
AGTGTTTCCCCTATTTAAGAGTGCTAG,1.71
GACGATTTCCTTATCCTGACGTGCTAG,2.04

# Set 3 — target: CREBZF, bZIP domain (human); method: DHFR protein complementation; matrix: yeast; baseline: wild-type JUN-FOS pair; reading: higher = stronger binding
# Setting: single substitutions, most at no-binding floor
# Starting sequence: JUN, bZIP domain (human); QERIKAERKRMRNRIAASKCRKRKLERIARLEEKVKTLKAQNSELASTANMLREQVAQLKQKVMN; partner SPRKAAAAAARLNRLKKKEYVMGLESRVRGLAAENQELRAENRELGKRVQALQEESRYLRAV
Change,binding fitness [natural log]
L31F,-1.5
R30V,-1.3
L31E,-1.56
L45V,-1.49
T37W,-1.52
L52I,-1.48
K34H,-1.56
L31T,-1.57
A46T,-1.39
R30E,-1.42
A40R,-1.44
K34L,-1.45
Q55A,-1.25
A29C,-1.45
L38F,-1.54
S47Y,-1.5
E54S,-1.4
L45D,-1.48
A40D,-1.53
L45N,-1.45
T48Q,-1.41
S47F,-1.44
Q41W,-1.39
Q55P,-1.49
T48F,-1.53

# Set 4 — method: RNA Bind-n-Seq; form: RNA; matrix: in vitro; tested at: not given; baseline: input RNA pool; reading: higher = stronger binding
# Target: RING finger protein unkempt homolog, zinc fingers 1-6, GST-SBP tag (UNK, Homo sapiens, UniProt Q9C0B0, residues 30-357)
# Chain of UniProt Q9C0B0 (30-357, looked up): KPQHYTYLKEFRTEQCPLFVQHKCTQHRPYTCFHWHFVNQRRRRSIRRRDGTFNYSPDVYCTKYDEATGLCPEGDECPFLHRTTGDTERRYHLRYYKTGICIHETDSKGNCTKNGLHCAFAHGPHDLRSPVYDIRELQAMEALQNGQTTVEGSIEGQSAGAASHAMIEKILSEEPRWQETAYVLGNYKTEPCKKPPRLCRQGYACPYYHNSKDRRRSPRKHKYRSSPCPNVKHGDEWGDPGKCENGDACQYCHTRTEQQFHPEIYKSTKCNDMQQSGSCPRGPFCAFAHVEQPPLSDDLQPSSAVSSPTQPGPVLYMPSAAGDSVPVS
# Setting: RNA with constant flanks, human-mouse chimeric sites, ends assumed
Sequence,bound/input enrichment [ratio]
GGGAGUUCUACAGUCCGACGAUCAUAAAGGCUAUGUUGAGUGGUCCAGGUCAGUUUGCUGAGAACGAAACCAACGAGGUCAAUUUUAGAGAGAUCCCCUCACAUGUGCUAUCGAAAGUAUGCAUGUAUUUUACCUACAAGGUCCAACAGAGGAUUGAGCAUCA,0.179
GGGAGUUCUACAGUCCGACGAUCUAAAUUAGGGCUGCCGUCCGUUCUCACUCCCUGGGCUGCGGAAAGCCAGAAGAUUUUAUCUAGCUUAUACAAGGCUGCUGGUGUUCCCUCUUUUUUUCCACGAGGGUUUUUUUUCCAGCACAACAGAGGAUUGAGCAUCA,0.59
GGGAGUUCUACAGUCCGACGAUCCUUUUUAAGAAGAUAUGUGAUGGGAUCUUUUAUACCCCUCAGUACUUAAAUCCUUCUGUAAUCAGCCUUUUGAAACAUAUGCUGCAGGUGGAUCCCAUGAAGAGGGCCACAAUCAAAGAUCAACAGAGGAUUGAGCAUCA,0.22
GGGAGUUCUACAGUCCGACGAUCUGUAGUUUCUUGAUUUAUCAUUUUUCUCUUUUCUUUCAGAUCGUCAGGAAAAGCCUAAAGAUUAGGUUGUAAGAAAAACAGAAGCCAUGUUUCGAAGGAAGACCUGUCAGGUAUUUCGUCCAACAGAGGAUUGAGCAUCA,0.299
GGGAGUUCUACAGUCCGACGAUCAAAGAACUACUGAGGCAAGGCAGCAAAUUUAGGAGAGACAUUUCAACAAUAUUGAUAGAGUUAGGAUUCCAAAUUAAAAAGAAAACUAAGACAUUAUAUAUCAACAAAGCCAAUGUGUGGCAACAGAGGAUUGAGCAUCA,9.31
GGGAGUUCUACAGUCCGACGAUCCAGUCCCCGUGUCCCAGGGGACAAUGUGAACAUGGACAACUCAAAGCGGACCCUCUAUUGUAGUUCUUGAUUCUCGAAAUGUGCUAUUAUUGUUUGUCUUUUUUUUUUUUUUUUUAAAGACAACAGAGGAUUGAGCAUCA,2.43
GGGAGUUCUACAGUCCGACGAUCUCUUAACUUAUUCAUUUCUUAUUUUUAUAUAGCUAGAUAAAUAUUGUUAGUCUUAGAGAGUAGUUCACAUUUUUUGAGAAGCAUGCCCUCCCUGUCCAUUUGUCUUAUAACAUGACCCAGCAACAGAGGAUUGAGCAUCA,55.5
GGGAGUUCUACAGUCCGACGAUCUCAUUUUUCUCUUUUCUUUCUUUCCUUUAGGAAAAGCCUAAAGAUUAGGUUGUAAGAAAAAUAGAAGCCAUGUUUCGAAGACCUGUGUUACAGGUAUUUCGUCAGUUUGUAAGACAUGAGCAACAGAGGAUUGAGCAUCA,0.469
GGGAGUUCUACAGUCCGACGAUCGUACUGCAACAGCAGGGAAAACUGCAGGAAGCUCUGAUGCAUUAUAAGGAGGCUAUUCGAAUCAGUCCUACCUUUGCUGAUGCCUACUCUAAUAUGGGAAACACUCUAAAGGAGAUGCAGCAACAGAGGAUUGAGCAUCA,0.165
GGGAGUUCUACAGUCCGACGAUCGGACAUCUGUCAAAUUGUAUUUCCCGUGUGAAACAAGUGAACACUCUGAUACACUUCAUCUGCUUGUACAUUUAACUGAUAGAGAAAUGUAAAUAUGUUAAUCCAAGCAAUGUGUCACUUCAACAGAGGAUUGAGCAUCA,0.351
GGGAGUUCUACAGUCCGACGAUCCAGUCCCGCGACAGCGUUGCAGGACGAUGUGAACAAAAACUCAAAGCGGACCCUCUAUUGUAGUUCUUGAUUCUCGAAAUGUGCUAUUAUUGUUUGUAAAAAAGGAAUUUUUUUUAAAGACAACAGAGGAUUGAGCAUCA,0.244

# Set 5 — method: protein binding microarray; form: double-stranded DNA, one strand shown; matrix: in vitro; tested at: not given; baseline: not given; reading: higher = stronger binding
# Target: Histone acetyltransferase KAT6A, winged helix 1, GST fusion (KAT6A, Homo sapiens, UniProt Q92794, residues 1-85)
# Setting: 8-mer, flanks averaged, mean of 2 arrays, mostly near background
# Target sequence (chain): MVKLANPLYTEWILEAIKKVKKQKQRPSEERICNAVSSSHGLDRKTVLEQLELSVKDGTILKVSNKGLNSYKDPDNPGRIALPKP
Sequence,E-score
CGATTTCC,-0.0318
GTGCGAAA,-0.0474
GAGACAAC,-0.152
GGTATTAC,0.0816
AACCTATG,-0.108
AGACGTGC,-0.0494
CAACGGCC,0.28
GCGCGCAA,0.438
ATATACTA,0.00328
AAGCTAAA,-0.126
GCCCTCGA,-0.151
AAGTTGGC,-0.0566
ACATTTCA,-0.293
CACGTCGC,0.253
TAGCTGGA,-0.302
AATTTTAA,-0.224
AGGACGTC,-0.0799
AGGCGGAG,0.226
AATTCACC,-0.133
CTAGCGCA,0.194
CCCAAAGG,-0.105
AGGGTAAA,-0.155
ATAAAGAT,-0.0875
GATACGCC,0.212
AGGTTCGA,-0.183

# Some of these lines once more (set 5):
Sequence,E-score
GATACGCC,0.212
AACCTATG,-0.108
AATTTTAA,-0.224
GAGACAAC,-0.152
GGTATTAC,0.0816
CCCAAAGG,-0.105
